Results collected from several papers.
Parts stem from different laboratories: compare values within a part only.
Sequence of UniProt Q9BRS2 (whole entry, looked up): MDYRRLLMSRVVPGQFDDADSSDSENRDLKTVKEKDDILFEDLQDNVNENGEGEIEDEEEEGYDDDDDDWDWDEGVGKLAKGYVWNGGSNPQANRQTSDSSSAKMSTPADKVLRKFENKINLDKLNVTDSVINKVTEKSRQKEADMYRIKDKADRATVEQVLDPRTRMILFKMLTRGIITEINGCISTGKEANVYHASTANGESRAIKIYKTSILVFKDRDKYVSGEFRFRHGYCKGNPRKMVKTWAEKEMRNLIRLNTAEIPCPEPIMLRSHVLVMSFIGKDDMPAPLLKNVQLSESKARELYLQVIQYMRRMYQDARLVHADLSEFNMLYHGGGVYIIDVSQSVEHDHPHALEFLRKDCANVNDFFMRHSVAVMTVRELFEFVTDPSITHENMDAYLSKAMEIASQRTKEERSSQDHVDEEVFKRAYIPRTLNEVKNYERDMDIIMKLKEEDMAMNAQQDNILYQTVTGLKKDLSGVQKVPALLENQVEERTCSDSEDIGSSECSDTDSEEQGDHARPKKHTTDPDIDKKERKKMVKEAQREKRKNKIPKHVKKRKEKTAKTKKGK
Sequence of UniProt P52564 (whole entry, looked up): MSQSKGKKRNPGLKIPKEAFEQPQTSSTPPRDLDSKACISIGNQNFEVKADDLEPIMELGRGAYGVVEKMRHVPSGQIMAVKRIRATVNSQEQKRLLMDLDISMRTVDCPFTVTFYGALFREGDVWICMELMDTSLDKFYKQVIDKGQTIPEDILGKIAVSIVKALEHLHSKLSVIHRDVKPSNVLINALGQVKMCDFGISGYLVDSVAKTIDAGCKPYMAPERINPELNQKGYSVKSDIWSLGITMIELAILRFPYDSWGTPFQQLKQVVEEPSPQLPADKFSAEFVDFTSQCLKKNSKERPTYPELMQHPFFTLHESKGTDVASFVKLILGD
Sequence of UniProt P10721 (whole entry, unmodified, looked up): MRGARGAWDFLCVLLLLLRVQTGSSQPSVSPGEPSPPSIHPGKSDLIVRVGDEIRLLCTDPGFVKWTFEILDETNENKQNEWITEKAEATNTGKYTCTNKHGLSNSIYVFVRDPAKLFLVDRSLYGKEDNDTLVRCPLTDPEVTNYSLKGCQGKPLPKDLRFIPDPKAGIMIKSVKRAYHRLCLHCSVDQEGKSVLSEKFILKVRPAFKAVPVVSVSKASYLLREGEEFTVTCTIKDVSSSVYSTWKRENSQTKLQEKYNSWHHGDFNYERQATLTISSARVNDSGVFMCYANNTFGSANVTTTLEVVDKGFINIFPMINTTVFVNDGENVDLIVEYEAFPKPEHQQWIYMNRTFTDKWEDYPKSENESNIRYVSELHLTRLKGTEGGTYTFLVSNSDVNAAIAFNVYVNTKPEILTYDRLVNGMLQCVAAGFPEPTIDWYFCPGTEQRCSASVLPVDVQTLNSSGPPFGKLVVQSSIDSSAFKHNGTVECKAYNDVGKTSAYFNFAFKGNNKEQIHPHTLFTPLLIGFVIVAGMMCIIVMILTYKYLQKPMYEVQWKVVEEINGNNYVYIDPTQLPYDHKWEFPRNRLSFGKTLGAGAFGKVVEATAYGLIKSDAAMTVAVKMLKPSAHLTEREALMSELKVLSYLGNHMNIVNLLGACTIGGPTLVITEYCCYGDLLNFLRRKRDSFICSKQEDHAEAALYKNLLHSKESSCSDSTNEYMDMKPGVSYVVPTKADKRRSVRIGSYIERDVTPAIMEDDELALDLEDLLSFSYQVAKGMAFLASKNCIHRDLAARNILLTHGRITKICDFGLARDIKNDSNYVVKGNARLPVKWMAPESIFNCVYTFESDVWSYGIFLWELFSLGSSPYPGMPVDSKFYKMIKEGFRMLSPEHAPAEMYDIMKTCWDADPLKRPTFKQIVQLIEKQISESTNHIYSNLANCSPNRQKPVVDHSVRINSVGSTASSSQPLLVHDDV
Sequence of UniProt P36897 (whole entry, looked up): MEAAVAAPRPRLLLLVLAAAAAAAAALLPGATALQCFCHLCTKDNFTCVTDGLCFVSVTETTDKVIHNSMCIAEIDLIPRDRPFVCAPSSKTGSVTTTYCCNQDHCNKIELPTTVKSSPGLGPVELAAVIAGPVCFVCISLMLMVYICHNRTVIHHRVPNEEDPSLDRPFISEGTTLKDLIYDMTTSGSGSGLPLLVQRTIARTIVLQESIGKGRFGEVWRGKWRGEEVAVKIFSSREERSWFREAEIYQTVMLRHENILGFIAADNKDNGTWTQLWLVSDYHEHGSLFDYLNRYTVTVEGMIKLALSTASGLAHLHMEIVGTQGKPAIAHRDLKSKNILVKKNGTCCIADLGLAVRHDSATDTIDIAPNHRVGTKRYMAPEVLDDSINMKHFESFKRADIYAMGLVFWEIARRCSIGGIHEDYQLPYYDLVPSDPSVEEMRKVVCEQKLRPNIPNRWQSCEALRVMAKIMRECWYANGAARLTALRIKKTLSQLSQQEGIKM
Sequence of UniProt Q8NEB9 (whole entry, looked up): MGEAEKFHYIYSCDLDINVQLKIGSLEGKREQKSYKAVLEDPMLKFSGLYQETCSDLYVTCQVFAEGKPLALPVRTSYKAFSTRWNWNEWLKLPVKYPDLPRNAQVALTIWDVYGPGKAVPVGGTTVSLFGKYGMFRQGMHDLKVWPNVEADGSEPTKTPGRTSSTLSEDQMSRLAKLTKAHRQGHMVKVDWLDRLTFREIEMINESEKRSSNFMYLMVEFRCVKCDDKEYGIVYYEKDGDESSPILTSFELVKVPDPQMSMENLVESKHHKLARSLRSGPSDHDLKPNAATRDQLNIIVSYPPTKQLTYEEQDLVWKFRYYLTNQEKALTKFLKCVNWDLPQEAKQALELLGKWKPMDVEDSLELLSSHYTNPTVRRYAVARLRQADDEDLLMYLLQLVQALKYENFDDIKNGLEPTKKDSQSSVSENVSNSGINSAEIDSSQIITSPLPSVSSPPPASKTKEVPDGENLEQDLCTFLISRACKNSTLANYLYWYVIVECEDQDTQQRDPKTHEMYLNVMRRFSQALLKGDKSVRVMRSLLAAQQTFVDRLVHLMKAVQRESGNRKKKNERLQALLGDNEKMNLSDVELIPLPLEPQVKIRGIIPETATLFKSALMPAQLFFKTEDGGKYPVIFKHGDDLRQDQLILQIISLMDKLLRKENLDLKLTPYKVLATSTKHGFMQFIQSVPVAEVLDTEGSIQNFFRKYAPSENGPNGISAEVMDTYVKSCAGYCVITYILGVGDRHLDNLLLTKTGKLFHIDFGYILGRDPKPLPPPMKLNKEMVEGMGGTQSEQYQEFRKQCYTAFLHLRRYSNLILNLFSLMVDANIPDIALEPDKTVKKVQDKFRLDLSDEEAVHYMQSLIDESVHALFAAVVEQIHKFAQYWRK
Sequence of UniProt Q04771 (whole entry, looked up): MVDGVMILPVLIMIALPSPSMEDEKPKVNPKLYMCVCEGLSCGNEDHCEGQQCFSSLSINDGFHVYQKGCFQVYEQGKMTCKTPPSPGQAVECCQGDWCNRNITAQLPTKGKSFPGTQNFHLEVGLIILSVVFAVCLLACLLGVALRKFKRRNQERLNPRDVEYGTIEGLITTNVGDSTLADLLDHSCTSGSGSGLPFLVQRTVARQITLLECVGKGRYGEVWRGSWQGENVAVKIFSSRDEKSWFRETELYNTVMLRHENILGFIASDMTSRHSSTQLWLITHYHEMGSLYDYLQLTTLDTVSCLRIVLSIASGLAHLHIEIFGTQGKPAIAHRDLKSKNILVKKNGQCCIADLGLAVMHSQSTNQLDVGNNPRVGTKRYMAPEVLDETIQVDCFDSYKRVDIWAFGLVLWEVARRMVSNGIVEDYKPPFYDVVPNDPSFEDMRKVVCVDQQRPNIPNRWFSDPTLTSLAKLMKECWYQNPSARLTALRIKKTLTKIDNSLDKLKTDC

Sample 1
Target: Alpha-1D adrenergic receptor (ADRA1D, Homo sapiens, UniProt P25100)
Sequence of UniProt P25100 (whole entry, looked up): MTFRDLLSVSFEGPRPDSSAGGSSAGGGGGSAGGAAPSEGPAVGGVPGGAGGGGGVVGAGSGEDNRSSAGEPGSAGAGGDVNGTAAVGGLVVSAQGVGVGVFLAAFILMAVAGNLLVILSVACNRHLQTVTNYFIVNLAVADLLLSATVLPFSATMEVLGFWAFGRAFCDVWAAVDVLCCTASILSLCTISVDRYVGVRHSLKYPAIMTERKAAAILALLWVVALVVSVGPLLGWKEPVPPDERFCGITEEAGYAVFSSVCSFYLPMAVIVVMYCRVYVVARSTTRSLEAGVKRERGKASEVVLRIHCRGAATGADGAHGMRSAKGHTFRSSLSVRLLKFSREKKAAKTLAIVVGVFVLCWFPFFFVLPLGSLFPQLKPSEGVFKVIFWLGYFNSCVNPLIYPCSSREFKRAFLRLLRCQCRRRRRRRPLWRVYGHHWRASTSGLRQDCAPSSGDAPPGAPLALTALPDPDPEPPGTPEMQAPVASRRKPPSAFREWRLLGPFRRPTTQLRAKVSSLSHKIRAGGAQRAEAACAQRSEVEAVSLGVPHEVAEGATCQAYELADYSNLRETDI
Observed: ligand displacement
Tested at: 10 µM
The inhibition of `COCCOc1nc(-c2ccc(Cl)nc2)nc2c1CN(C(=O)c1ncn3ccccc13)CC2` is reported as -4.48%.
`C[C@@H]1CN(c2cc(-c3n[nH]c4ccc(OC5(C)CC5)cc34)ncn2)C[C@H](C)O1` gave an inhibition of 3.26%.
`CO[C@H]1CC[C@H](CNc2ccc(S(=O)(=O)NC(=O)c3ccc(N4CCN(CC5=C(c6ccc(Cl)cc6)CC(C)(C)CC5)CC4)cc3Oc3cnc4[nH]ccc4c3)cc2[N+](=O)[O-])CC1` has an inhibition of -9.01%.
With `c1ccc(N2CCN(Cc3nc4ccccc4[nH]3)CC2)nc1` the inhibition was -4.6%.
`O=C(N[C@H]1CCCCC/C=C\C2C[C@@]2(C(=O)O)NC(=O)[C@@H]2C[C@@H](Oc3ccncc3)CN2C1=O)OC1CCCC1` (stereo partly shown) has an inhibition of -19.4%.
`CC1=C(C#N)C(c2ccc3[nH]nc(C)c3c2)C(C#N)=C(C)N1` gave an inhibition of 2.5%.
For `CC1CCN(c2ccnc(NCc3cn(C)cn3)n2)CC1`, the inhibition was 25.1%.
`CS(=O)(=O)N1CCCC(NC(=O)[C@H](CCC2CCCCC2)NC(=O)c2ccc(CNC(=O)c3cnc4ccccn34)cc2)C1` (stereo partly shown) gave an inhibition of 6.47%.
`CCC(=NO)C(C)=Cc1ccc(F)c(C)c1` gave an inhibition of -3.74%.
The inhibition of `N#CC1(c2ccccn2)CCN(Cc2cc(C(=O)N3CCCC3)c(=O)n3ccccc23)CC1` is reported as -10.2%.
For `c1ccc(C2CCN(c3cnc4c(N5CCOCC5)nccn34)CC2)cc1`, the inhibition was 10.7%.
For `CN(C)C(=O)c1sc2nc(N3CCC(S(C)(=O)=O)CC3)cc(C(F)(F)F)c2c1N`, the inhibition was 7.27%.
With `Cc1c(NC(=O)c2cc(C(N)=O)nc3cc(F)ccc23)c(C(F)(F)F)nn1Cc1ccc(C#N)cc1` the inhibition was 7.36%.
For `CC[C@H](CC(=O)O)n1c(=O)c2ncccc2n(Cc2cn(C)c3cc(C)cc(C)c23)c1=O`, the inhibition was 12.1%.
`C[C@@H](c1cccc(C#N)c1)n1cc(Cl)cc(C(N)=O)c1=N` gave an inhibition of 60.5%.
The inhibition of `Cn1nc(C(=O)NCc2ccc(C(=O)O)cc2)cc1-c1ccc2[nH]ccc2c1` is reported as -18.8%.
For `CN1CCN(c2ccnc(NCCc3ccccc3)n2)CC1`, the inhibition was 26%.
`Cc1cc(Nc2nccc(C)n2)cc(-c2cnc([C@@]3(O)CC[C@H](C(=O)O)C(C)(C)C3)s2)c1` gave an inhibition of -4.92%.
The inhibition of `C[C@H](c1ccc(F)cc1)N(Cc1cccc(C(=O)O)c1)C(=O)c1cnc2ccccc2c1` is reported as 27.3%.
`CN(C)CC#Cc1ccc(OCCCc2sc(N3CCc4cccc(C(=O)Nc5nc6ccccc6s5)c4C3)nc2C(=O)O)c(F)c1` has an inhibition of 1.52%.

Sample 2
SMILES: CC#CC(=O)N1CCC[C@H]1c1nc(-c2ccc(C(=O)Nc3ccccn3)cc2)c2c(N)nccn12
Action: inhibitor
Tested at: 1 µM
The inhibition was 76% (RIOK1 (Homo sapiens, UniProt Q9BRS2); enzyme activity).
For JAK3 (Homo sapiens, UniProt P52333): inhibition read 1%.
For ACVR1 (Homo sapiens, UniProt Q04771); enzyme activity: inhibition read 18%.
PIK3C3 (Homo sapiens, UniProt Q8NEB9); enzyme activity — inhibition: 25%.
It gave 16% for inhibition (TGFBR1 (Homo sapiens, UniProt P36897); enzyme activity).
For MAP2K6 (Homo sapiens, UniProt P52564); enzyme activity: inhibition read 0%.
KIT (Homo sapiens, UniProt P10721, V559D); enzyme activity — inhibition: 38%.

Sample 3
Target: Calcium/calmodulin-dependent protein kinase type II subunit alpha (CAMK2A, Homo sapiens, UniProt Q9UQM7)
Sequence of UniProt Q9UQM7 (whole entry, looked up): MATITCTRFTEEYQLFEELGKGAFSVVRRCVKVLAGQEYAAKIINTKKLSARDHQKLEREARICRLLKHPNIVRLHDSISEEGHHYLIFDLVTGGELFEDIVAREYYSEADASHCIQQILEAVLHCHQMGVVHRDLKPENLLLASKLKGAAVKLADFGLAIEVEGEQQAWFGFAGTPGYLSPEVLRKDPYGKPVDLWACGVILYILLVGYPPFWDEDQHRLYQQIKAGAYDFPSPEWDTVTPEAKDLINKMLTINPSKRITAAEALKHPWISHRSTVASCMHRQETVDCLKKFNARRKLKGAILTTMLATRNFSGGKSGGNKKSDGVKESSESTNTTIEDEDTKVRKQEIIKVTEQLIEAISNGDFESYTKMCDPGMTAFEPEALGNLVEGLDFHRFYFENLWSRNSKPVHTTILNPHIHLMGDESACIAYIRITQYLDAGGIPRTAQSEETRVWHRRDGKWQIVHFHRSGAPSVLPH
Observed: enzyme activity
Action: inhibitor
Tested at: 10 µM
With `CC(=O)Oc1ccc(C(=C2CCCCC2)c2ccc(OC(C)=O)cc2)cc1` the inhibition was -8%.
For `Nc1ncnc2c1ncn2[C@H]1C[C@H](O)[C@@H](CO)O1`, the inhibition was -1%.
`COc1c2ccoc2c(OCC(O)C(C)(C)O)c2oc(=O)ccc12` (racemic) gave an inhibition of 27%.
The inhibition of `CCCCCCCCCCCCCCCC(=O)O[C@@H]1[C@@H](O)[C@@H](O)[C@@H]([C@H](NC(=O)[C@@H]2C[C@@H](CCC)CN2C)[C@H](C)Cl)O[C@@H]1SC` is reported as -8%.
`CC(=O)[C@@]1(O)CC[C@H]2[C@@H]3C=C(C)C4=CC(=O)CC[C@]4(C)[C@H]3CC[C@@]21C` gave an inhibition of -3%.
`C[C@H](CC[C@@H](O[C@@H]1O[C@H](CO[C@@H]2O[C@H](CO)[C@@H](O)[C@H](O)[C@H]2O)[C@@H](O)[C@H](O)[C@H]1O[C@@H]1O[C@H](CO)[C@@H](O)[C@H](O)[C@H]1O)C(C)(C)O)[C@H]1CC[C@@]2(C)[C@@H]3CC=C4[C@@H](CC[C@H](O[C@@H]5O[C@H](CO[C@@H]6O[C@H](CO)[C@@H](O)[C@H](O)[C@H]6O)[C@@H](O)[C@H](O)[C@H]5O)C4(C)C)[C@]3(C)C(=O)C[C@]12C` gave an inhibition of 5%.

Sample 4
Species: mouse
Sample: microsomes or S9
Tested at: 2 µM
Time: 0.5 h
The remaining compound of `CCCS(=O)(=O)N1CC(=O)N(c2ccc(F)cc2F)C(C)(C(=O)NC2CCCCCCC2)C1` (stereo not shown) is reported as 0.288%.
With `O=C(NC1CCCc2ccccc21)c1ccc(CS(=O)(=O)c2ccc(Br)cc2)o1` (stereo not shown) the remaining compound was 22.9%.
With `O=C(NCc1cccnc1)c1c(OCC2CC2)cc(=O)n2c1CCOCC2` the remaining compound was 74%.
`Cn1cc(-c2ccc3nnc(C[C@H](O)CO)n3n2)cn1` gave a remaining compound of 84.5%.
The remaining compound of `O=c1c2ncn(C3CCS(=O)(=O)C3)c2ncn1Cc1ccc(F)cc1` (stereo not shown) is reported as 35.2%.
`CC(C)CNc1oc(/C=C/c2cccs2)nc1C#N` gave a remaining compound of 0.494%.
The remaining compound of `Cc1noc(C2CCCN2C(=O)c2ccnc3c2nnn3C)n1` (stereo not shown) is reported as over 100%.
The remaining compound of `CC(C)(C)c1ccc(Oc2ccc(N)c(Cl)c2)cc1` is reported as 14.7%.
For `CCOC(=O)c1c(=O)n2cccnc2c2c(C)cccc12`, the remaining compound was 0.413%.
`c1ccc(Cn2ncc3c(-n4ccnc4)ncnc32)cc1` has a remaining compound of 48.4%.

A few entries again (sample 1):
`CCC(=NO)C(C)=Cc1ccc(F)c(C)c1` gave an inhibition of -3.74%.
`C[C@@H](c1cccc(C#N)c1)n1cc(Cl)cc(C(N)=O)c1=N` gave an inhibition of 60.5%.
`Cc1cc(Nc2nccc(C)n2)cc(-c2cnc([C@@]3(O)CC[C@H](C(=O)O)C(C)(C)C3)s2)c1` gave an inhibition of -4.92%.
The inhibition of `N#CC1(c2ccccn2)CCN(Cc2cc(C(=O)N3CCCC3)c(=O)n3ccccc23)CC1` is reported as -10.2%.
The inhibition of `COCCOc1nc(-c2ccc(Cl)nc2)nc2c1CN(C(=O)c1ncn3ccccc13)CC2` is reported as -4.48%.
`O=C(N[C@H]1CCCCC/C=C\C2C[C@@]2(C(=O)O)NC(=O)[C@@H]2C[C@@H](Oc3ccncc3)CN2C1=O)OC1CCCC1` (stereo partly shown) has an inhibition of -19.4%.
The inhibition of `Cn1nc(C(=O)NCc2ccc(C(=O)O)cc2)cc1-c1ccc2[nH]ccc2c1` is reported as -18.8%.
